Published values of several laboratories.
Every numbered part comes from another study and shows a few of its results, in no order.

Set 1 — technique: protein-binding microarray; form: double-stranded DNA, one strand shown; medium: in vitro; tested at: 2540 nM top; notes: 60-bp whole probe; added: salmon DNA 0.4 mg/ml; reference: random background probes; direction: higher = stronger binding
Target: Interferon regulatory factor 3, full length, phosphomimetic (IRF3, Homo sapiens, UniProt Q14653, residues 1-427, S386D/S396D/S398D/S402D/T404D/S405D)
Sequence of UniProt Q14653 (whole entry, unmodified, looked up): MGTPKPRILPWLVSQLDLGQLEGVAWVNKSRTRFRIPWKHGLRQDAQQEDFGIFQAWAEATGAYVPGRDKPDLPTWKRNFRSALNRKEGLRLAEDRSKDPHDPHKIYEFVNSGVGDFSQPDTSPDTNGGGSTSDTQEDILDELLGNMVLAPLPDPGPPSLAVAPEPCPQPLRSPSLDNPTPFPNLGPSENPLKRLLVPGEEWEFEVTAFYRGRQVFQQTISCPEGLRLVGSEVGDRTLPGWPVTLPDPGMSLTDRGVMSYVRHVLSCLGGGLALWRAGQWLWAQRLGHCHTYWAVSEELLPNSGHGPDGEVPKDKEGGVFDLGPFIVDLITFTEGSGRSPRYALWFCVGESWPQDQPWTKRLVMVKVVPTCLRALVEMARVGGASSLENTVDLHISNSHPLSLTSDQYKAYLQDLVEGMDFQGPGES
| Sequence | fitted relative affinity |
| --- | --- |
| GCCTAGCACGACGGTTCCCTTCTCCTGACGTGCTAGGTCTTGATTCGCTTGACGCTGCTG | 6.83 z-score |
| GCCTAGCACTTAGGTAACGGGACTGGGTTAGTGCTAGTCTTGATTCGCTTGACGCTGCTG | -0.64 z-score |
| GCCTAGCACTTAGGACTGGACTTTCGGTTTGTGCTAGTCTTGATTCGCTTGACGCTGCTG | 2.7 z-score |

Set 2 — technique: RNA Bind-n-Seq; form: RNA; medium: in vitro; tested at: 20 nM; notes: 6-mer, flanks averaged, single round; added: 150 mM KCl; reference: input library; direction: higher = stronger binding
Target: TAR DNA-binding protein 43, full length, His tag (TARDBP, Homo sapiens, UniProt Q13148, residues 1-414)
| Sequence | 6-mer enrichment (R) |
| --- | --- |
| CUUGAA | 0.685 |
| CCCGGC | 0.783 |
| CCUGGG | 1.78 |
| CCACGA | 0.684 |

Set 3 — technique: aptamer microarray, sandwich; form: DNA with 2'F-ANA; medium: in vitro; tested at: 200 nM; added: Cy3 exosite-II aptamer, 400 nM; direction: higher = stronger binding
Target: Prothrombin, mature alpha-thrombin (F2, Homo sapiens, UniProt P00734)
Notes: whole 15-mer aptamer, many near background
| Sequence | mean fluorescence intensity [a.u.] |
| --- | --- |
| GGTTGGTGTGGTTGG (2'F-ANA at 1 2 5 6 7 8 10 12 13 14) | 71.1 |
| GGTTGGTGTGGTTGG (2'F-ANA at 1 6 8 10 11 15) | 54.4 |
| GGTTGGTGTGGTTGG (2'F-ANA at 3 4 5 6 10 13 14) | 47.1 |
| GGTTGGTGTGGTTGG (2'F-ANA at 1 6 8 9 10 11) | 52.1 |

Mixed results
| Molecule | target | assay | system | setting | how to read | measurement | value |
| --- | --- | --- | --- | --- | --- | --- | --- |
| PhoQ, residues 284 288 289 292 302 303 SSTMSV | PhoP, residues 12 14 15 18 19 LYHSL (Escherichia coli, UniProt P23836) | Sort-seq, item: YFP reporter | E. coli | PhoQ-PhoP variant library, added: 10 µM Mg2+ | reference: high Mg2+ state, higher = stronger signaling | fold induction | 9.55 |

Excerpt of the above (set 1):
| Sequence | fitted relative affinity |
| --- | --- |
| GCCTAGCACTTAGGACTGGACTTTCGGTTTGTGCTAGTCTTGATTCGCTTGACGCTGCTG | 2.7 z-score |
